Assay results gathered from unrelated publications.
A part holds a random share of what one study measured.
Chain of UniProt P28482 (whole entry, looked up): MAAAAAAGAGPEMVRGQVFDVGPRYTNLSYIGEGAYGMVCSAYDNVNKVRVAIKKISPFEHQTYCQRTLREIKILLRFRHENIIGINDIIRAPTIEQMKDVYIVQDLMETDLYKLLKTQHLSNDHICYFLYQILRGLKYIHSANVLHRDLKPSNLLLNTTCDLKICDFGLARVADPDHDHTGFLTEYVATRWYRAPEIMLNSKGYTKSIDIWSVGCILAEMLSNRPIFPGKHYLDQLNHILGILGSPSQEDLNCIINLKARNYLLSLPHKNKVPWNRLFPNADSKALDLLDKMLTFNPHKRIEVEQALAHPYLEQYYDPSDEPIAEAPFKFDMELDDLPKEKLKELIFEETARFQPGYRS
Chain of UniProt P08581 (whole entry, looked up): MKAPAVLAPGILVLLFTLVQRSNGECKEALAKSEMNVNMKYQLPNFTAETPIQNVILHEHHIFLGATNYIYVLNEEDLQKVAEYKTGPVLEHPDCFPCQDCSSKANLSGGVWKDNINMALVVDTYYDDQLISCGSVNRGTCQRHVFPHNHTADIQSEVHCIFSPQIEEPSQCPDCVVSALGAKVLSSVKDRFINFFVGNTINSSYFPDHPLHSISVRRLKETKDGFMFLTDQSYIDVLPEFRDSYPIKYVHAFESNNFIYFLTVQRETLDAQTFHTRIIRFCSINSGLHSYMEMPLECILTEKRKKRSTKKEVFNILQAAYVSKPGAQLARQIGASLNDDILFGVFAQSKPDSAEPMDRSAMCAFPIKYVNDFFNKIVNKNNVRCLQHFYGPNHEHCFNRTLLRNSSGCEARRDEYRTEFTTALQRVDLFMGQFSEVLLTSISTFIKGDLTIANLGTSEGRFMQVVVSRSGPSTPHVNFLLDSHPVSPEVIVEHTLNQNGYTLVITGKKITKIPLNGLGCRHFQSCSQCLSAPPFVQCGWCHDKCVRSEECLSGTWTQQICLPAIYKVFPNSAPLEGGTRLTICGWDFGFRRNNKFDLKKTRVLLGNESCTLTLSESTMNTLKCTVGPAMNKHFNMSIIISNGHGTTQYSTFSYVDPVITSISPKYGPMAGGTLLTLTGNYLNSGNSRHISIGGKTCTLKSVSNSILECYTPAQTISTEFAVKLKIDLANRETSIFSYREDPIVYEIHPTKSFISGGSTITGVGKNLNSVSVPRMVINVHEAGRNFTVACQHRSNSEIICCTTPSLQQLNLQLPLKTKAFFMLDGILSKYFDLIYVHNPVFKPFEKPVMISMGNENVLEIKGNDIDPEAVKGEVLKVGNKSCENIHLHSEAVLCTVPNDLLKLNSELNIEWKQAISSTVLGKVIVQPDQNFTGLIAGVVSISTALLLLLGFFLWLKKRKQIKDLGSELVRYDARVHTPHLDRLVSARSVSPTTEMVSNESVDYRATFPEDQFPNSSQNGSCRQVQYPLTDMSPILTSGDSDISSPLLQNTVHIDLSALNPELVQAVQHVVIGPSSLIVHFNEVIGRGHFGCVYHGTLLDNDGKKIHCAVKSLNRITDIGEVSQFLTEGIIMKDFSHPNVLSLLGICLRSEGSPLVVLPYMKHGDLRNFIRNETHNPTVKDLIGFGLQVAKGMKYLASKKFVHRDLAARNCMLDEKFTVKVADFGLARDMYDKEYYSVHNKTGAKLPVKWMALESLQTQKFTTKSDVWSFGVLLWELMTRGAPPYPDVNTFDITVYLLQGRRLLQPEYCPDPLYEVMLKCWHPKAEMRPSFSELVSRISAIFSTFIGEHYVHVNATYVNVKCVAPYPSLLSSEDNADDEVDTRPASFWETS
Chain of UniProt Q15759 (whole entry, looked up): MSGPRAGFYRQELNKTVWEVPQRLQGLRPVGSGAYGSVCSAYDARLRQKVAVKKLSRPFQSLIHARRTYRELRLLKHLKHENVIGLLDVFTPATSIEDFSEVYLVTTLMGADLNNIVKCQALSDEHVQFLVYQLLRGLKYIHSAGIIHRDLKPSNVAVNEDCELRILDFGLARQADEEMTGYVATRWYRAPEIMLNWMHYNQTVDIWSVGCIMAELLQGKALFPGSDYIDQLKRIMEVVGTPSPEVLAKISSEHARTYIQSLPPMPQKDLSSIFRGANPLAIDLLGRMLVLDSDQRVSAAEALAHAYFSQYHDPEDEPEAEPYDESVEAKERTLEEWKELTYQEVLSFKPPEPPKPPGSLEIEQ

Series 1
SMILES: CCn1cnc2c(Nc3cccc(Cl)c3)nc(N[C@H]3CCCC[C@H]3N)nc21
Observed: enzyme activity
Mode: inhibitor
Concentration: 0.5 µM
Reference: control
target	remaining activity [%]
NEK3 (Homo sapiens, UniProt P51956)	100
MAPK1 (Homo sapiens, UniProt P28482)	91.7
CDC42BPB (Homo sapiens, UniProt Q9Y5S2)	97.7
DDR2 (Homo sapiens, UniProt Q16832)	97.2
MAPK14 (Homo sapiens, UniProt Q16539)	100
PAK3 (Homo sapiens, UniProt O75914)	91.9
Cyclin-dependent kinase 1, with cyclin A (CDK1, Homo sapiens, UniProt P06493)	60.7
MAPK11 (Homo sapiens, UniProt Q15759)	94.1
MET (Homo sapiens, UniProt P08581)	102
DCLK2 (Homo sapiens, UniProt Q8N568)	93.1
MAP2K1 (Homo sapiens, UniProt Q02750)	92.2
TXK (Homo sapiens, UniProt P42681)	69.1
KDR (Homo sapiens, UniProt P35968)	96.5

Series 2
Target: DNA polymerase theta, ATPase domain (POLQ, Homo sapiens, UniProt O75417)
Chain of UniProt O75417 (whole entry, unmodified, looked up): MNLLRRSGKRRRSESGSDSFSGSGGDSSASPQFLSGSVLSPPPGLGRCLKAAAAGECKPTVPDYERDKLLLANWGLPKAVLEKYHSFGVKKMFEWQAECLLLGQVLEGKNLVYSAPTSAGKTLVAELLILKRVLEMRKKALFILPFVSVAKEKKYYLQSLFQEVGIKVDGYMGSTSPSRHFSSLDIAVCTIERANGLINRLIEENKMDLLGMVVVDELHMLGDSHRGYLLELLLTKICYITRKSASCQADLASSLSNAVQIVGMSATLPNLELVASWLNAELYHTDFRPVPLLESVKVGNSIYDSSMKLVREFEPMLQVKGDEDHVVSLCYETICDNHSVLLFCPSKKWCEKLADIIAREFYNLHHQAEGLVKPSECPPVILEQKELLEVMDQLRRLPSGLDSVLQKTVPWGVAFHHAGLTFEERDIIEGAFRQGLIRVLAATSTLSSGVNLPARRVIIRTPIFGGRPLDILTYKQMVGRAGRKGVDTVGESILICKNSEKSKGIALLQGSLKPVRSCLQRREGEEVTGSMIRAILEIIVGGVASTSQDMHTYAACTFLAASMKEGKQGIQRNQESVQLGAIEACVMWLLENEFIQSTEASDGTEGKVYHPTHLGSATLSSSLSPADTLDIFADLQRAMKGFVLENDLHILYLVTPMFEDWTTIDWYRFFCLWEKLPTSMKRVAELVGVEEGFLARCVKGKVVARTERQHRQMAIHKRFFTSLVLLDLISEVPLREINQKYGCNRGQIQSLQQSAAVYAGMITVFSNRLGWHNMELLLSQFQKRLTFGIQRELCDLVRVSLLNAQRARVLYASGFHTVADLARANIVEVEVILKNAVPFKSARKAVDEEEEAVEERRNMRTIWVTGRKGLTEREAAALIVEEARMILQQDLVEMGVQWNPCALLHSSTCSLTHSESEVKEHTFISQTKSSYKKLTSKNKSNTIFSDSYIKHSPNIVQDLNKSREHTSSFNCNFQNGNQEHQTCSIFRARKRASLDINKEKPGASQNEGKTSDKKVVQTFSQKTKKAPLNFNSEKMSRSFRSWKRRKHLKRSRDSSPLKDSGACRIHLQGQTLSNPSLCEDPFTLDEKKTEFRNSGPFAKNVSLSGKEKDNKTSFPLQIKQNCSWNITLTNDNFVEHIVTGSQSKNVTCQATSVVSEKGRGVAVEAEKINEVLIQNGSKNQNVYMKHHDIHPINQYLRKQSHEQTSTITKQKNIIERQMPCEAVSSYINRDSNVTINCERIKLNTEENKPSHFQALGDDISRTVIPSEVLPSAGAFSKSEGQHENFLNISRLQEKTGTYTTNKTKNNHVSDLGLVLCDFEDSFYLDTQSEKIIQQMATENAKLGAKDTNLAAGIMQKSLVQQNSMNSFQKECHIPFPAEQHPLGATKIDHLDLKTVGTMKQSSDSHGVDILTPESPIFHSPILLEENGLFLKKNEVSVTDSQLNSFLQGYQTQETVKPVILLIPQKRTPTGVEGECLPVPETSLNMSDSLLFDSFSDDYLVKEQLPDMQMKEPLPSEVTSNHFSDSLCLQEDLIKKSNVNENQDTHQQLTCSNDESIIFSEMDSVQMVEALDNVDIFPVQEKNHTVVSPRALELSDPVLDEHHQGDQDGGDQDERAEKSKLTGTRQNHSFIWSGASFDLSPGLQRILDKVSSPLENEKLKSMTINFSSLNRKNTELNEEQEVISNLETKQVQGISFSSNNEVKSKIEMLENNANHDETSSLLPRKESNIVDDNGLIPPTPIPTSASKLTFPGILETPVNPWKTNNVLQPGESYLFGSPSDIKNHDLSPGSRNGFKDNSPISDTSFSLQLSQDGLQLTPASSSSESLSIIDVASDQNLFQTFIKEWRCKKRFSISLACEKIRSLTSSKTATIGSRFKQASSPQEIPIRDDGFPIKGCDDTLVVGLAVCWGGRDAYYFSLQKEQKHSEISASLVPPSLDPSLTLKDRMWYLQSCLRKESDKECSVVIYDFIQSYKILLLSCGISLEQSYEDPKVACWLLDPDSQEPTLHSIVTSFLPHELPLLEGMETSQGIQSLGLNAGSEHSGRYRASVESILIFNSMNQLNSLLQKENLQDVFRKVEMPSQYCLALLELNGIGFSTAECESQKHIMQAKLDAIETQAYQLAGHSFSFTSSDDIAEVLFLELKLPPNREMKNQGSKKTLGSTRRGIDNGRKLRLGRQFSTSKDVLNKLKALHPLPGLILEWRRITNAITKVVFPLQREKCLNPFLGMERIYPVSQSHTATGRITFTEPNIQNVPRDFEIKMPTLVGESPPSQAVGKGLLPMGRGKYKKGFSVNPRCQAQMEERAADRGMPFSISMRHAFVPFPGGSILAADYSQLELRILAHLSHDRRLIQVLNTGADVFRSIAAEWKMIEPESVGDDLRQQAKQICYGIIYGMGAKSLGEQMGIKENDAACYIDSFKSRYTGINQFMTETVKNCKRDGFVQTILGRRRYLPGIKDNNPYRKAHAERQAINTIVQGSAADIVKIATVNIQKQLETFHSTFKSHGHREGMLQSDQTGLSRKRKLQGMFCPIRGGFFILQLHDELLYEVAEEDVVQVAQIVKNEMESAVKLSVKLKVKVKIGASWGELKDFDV
Observed: enzyme activity
Mode: inhibitor
Concentration: 77 µM
Reference: untreated
SMILES	remaining activity
c1ccc2c(c1)[I+]c1ccccc1-2	107%
CCCC[N+]1(C)[C@@H]2C[C@@H](OC(=O)[C@H](CO)c3ccccc3)C[C@H]1[C@@H]1O[C@@H]12 (stereo partly drawn)	101%
CC(C)(C)NCC(O)c1ccccc1Cl (stereo not drawn)	99.1%
OCc1cnc[nH]1	102%
C=CCc1ccccc1OCC(O)CNC1(C)CCC(C(C)(C)NC(=O)CBr)CC1 (stereo not drawn)	100%
CC(=O)O[C@H]1CC[C@@]2(C)C(=CC[C@@H]3[C@@H]2CC[C@]2(C)C(=O)CC[C@@H]32)C1	103%
Cc1ncsc1CCCl	89.8%
O=C(O)CCCc1ccc(N(CCCl)CCCl)cc1	101%

Series 3
Target: Eukaryotic initiation factor 4A-I (EIF4A1, Homo sapiens, UniProt P60842)
Chain of UniProt P60842 (whole entry, looked up): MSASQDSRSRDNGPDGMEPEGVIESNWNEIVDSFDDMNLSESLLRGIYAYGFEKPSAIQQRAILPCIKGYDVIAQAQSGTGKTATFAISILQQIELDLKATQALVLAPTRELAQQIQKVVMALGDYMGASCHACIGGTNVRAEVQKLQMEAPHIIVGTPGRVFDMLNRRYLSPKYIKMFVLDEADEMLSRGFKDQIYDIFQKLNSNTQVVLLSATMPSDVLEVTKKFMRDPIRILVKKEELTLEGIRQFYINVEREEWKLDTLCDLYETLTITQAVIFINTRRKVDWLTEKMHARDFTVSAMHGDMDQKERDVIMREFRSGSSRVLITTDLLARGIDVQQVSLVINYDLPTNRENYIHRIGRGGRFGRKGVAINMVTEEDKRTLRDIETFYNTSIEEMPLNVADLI
Observed: RNA clamping
Method: fluorescence polarization
Concentration: concentration not given
Added: FAM-labelled poly r(AG)8 RNA
Direction: higher = more clamping
SMILES	fluorescence polarization change [mP]
COc1ccc([C@@]23Oc4cc(OC)cc(OC)c4[C@]2(O)c2nc(-c4ccncc4)[nH]c(=O)c2[C@H]3c2ccccc2)cc1	16.4
COC(=O)[C@@H]1[C@@H](c2ccccc2)[C@]2(c3ccc(OC)cc3)Oc3cc(OC)cc(OC)c3[C@@]23OC(C)=N[C@@]13O	30.2
COc1ccc([C@@]23Oc4cc(OC)cc(OC)c4[C@]2(O)c2nc(-c4ccc(Cl)nc4)[nH]c(=O)c2[C@H]3c2ccccc2)cc1	17.5
COc1ccc([C@@]23Oc4cc(OC)cc(OC)c4[C@@]24NC(C)=N[C@@]4(O)[C@H](C(=O)N(C)OC)[C@H]3c2ccccc2)cc1	114
COc1ccc([C@@]23Oc4cc(OC)cc(OC)c4[C@]2(O)c2nc(-c4cccnc4)[nH]c(=O)c2[C@H]3c2ccccc2)cc1	42.4
COc1ccc([C@@]23Oc4cc(OC)cc(OC)c4[C@]2(O)[C@H](O)C[C@H]3c2ccccc2)cc1	66
COC(=O)[C@@H]1[C@@H](c2ccccc2)[C@]2(c3ccc(OC)cc3)Oc3cc(OC)cc(OC)c3[C@@]23OC(c2ccc(Cl)nc2)=N[C@@]13O	6.1
COCc1nc2c(c(=O)[nH]1)[C@@H](c1ccccc1)[C@]1(c3ccc(OC)cc3)Oc3cc(OC)cc(OC)c3[C@]21O	69.6
COC(=O)[C@H]1[C@@H](O)[C@@]2(O)c3c(OC)cc(OC)cc3O[C@@]2(c2ccc(Br)cc2)[C@@H]1c1ccccc1	47
COc1ccc([C@@]23Oc4cc(OC)cc(OC)c4[C@@]24NC(C)=NC4=C(C=O)[C@H]3c2ccccc2)cc1	47.4
COc1ccc([C@@]23Oc4cc(OC)cc(OC)c4[C@]2(O)c2nc(-c4ccc(Cl)cc4)[nH]c(=O)c2[C@H]3c2ccccc2)cc1	4
[2H]C([2H])([2H])C1=N[C@@]2(O)[C@H](C(=O)OC)[C@@H](c3ccccc3)[C@]3(c4ccc(OC)cc4)Oc4cc(OC)cc(OC)c4[C@]23N1	68
COc1ccc([C@@]23Oc4cc(OC)cc(OC)c4[C@]2(O)c2nc(-c4ccc(Br)cc4)[nH]c(=O)c2[C@H]3c2ccccc2)cc1	-2
CCOC(=O)COc1nc(-c2ccccc2)nc2c1[C@@H](c1ccccc1)[C@]1(c3ccc(OC)cc3)Oc3cc(OC)cc(OC)c3[C@]21O	11.9

Mixed results
SMILES	target	assay	conditions	quantity	value
O=S(=O)(NC1CCC(c2cc(F)ccc2F)(S(=O)(=O)c2ccc(Cl)cc2)CC1)C(F)(F)F (stereo not drawn)	pknB (Mycobacterium tuberculosis, UniProt P9WI81)	cell-free assay, competition with immobilised ligand	1 µM	remaining binding	91%
CNC(=O)c1cc(C(=O)NC2CC2)cn(Cc2ccccc2)c1=O	DRD4 (Homo sapiens, UniProt P21917)	binding, radioligand binding	10 µM	inhibition	6.96%
CCC(=O)N[C@@H]1CC[C@H](C(=O)N(C)c2ccc(-c3nc4ccccc4o3)cc2)C1	CDPK1 (Plasmodium falciparum, UniProt P62344)	cell-free assay, competition with immobilised ligand	1 µM	remaining binding	90%
Cc1c(N2CCNCC2)nc2ccc(Br)cc2c1C(=O)NC[C@H](CCC(=O)O)c1ccccc1Cl	HRH2 (Homo sapiens, UniProt P25021)	ligand displacement	10 µM	inhibition	-4.15%

Excerpt of the above (series 1):
target	remaining activity [%]
MET (Homo sapiens, UniProt P08581)	102
DDR2 (Homo sapiens, UniProt Q16832)	97.2
CDC42BPB (Homo sapiens, UniProt Q9Y5S2)	97.7
PAK3 (Homo sapiens, UniProt O75914)	91.9
MAP2K1 (Homo sapiens, UniProt Q02750)	92.2
TXK (Homo sapiens, UniProt P42681)	69.1
